Measured values collected from several papers.
Lines come from different studies, so protocols differ.

| Structure (SMILES) | organism | test | test system | setting | MIC |
| --- | --- | --- | --- | --- | --- |
| C/C(=N/NC(=N)N)c1nnn(-c2ccc(C#CC(C)(C)O)cc2)c1C | Clostridioides difficile | microbial growth, broth dilution | BAA1870 | – | 16 µg/mL |
| CC(=O)N[C@H](CCCCN)C(=O)N[C@H](CC(C)C)C(=O)N[C@H](CCCCN)C(=O)N[C@H](CO)C(=O)N[C@H](CC(C)C)C(=O)N[C@H](CC(C)C)C(=O)N[C@H](CCCCN)C(=O)N[C@@H](C(=O)N[C@H](CC(C)C)C(=O)N[C@H](CO)C(=O)N[C@H](CCCCN)C(=O)N[C@H](C)C(=O)N[C@H](CCCCN)C(=O)N[C@H](CCCCN)C(=O)N[C@H](CCCCN)C(=O)N[C@H](CC(C)C)C(=O)N[C@H](CC(C)C)C(=O)N[C@H](CCCCN)C(=O)N[C@@H](C(=O)N[C@H](C)C(=O)N[C@H](CC(C)C)C(=O)N[C@H](CCCCN)C(=O)N[C@H](C)C(=O)N[C@H](CC(C)C)C(=O)N[C@H](CO)C(=O)N[C@H](CCCCN)C(N)=O)[C@H](C)O)[C@H](C)O | Acinetobacter baumannii | – | 759, Mueller-Hinton broth | 24 h, 37 °C | 0.3 µM |
| Cc1c(CN(C)C(=O)/C=C/c2cnc3c(c2)CC(N)C(=O)N3)oc2ccccc12 (stereo not drawn) | Enterobacter cloacae, Klebsiella pneumoniae, Acinetobacter baumannii | – | – | – | 4 to 8 µg/mL |
| CC(=NNC(=N)N)c1nnn(-c2ccc(C#CC3(O)CCCCC3)cc2)c1C | Clostridioides difficile | microbial growth, broth dilution | BAA1870 | – | 8 µg/mL |
| C[C@@H](c1ccn(Cc2cc(F)cc(F)c2)n1)[C@](O)(Cn1cnnn1)c1ccc(F)cc1F | Cryptococcus neoformans | growth, broth microdilution | H99 | 72 h, 30 °C, ≥50% inhibition | 0.25 µg/mL |
| Oc1c(Br)cc(Br)c2nc3cc(Cc4ccccc4)ccc3nc12 | Gram-positive bacteria | – | – | range over strain panel | 0.1 to 0.78 µM |
| N#Cc1ccc2cccc(O)c2n1 | Citrobacter freundii | microbial growth, agar dilution | – | – | > 1500 µM |
| C[C@@H](c1ccn(Cc2ccc(F)c(C(F)(F)F)c2)n1)[C@](O)(Cn1cnnn1)c1ccc(F)cc1F | Cryptococcus neoformans | growth, broth microdilution | H99 | 72 h, 30 °C, ≥50% inhibition | 0.5 µg/mL |
| C[C@@H]1C(=O)O[C@@H](C)/C=C/C=C\[C@@H](C)[C@@H]2C=C[C@@H]3C[C@]4(C)O[C@@H]4[C@@H](C)[C@H]3[C@@H]2C(=O)C(Cl)(Cl)C1=O | Staphylococcus aureus | microbial growth, broth dilution | NEWMAN | – | 0.025 µg/mL |
| C[C@@H](c1ccn(Cc2ccc(C(C)(C)C)cc2)n1)[C@](O)(Cn1cnnn1)c1ccc(F)cc1F | Cryptococcus neoformans | growth, broth microdilution | H99 | 72 h, 30 °C, ≥50% inhibition | 1 µg/mL |
| CC1(C)S[C@@H]2[C@H](NC(=O)[C@H](NC(=O)C3=C(O)C(c4ccccc4F)NC3=O)c3ccccc3)C(=O)N2[C@H]1C(=O)O (stereo partly drawn) | Escherichia coli | broth microdilution | BW25113, Mueller-Hinton broth | added: 2,2'-bipyridyl 30 µg/mL | 25 µg/mL |
| C[C@@H](c1ccn(Cc2cc(F)ccc2F)n1)[C@](O)(Cn1cnnn1)c1ccc(F)cc1F | Cryptococcus neoformans | growth, broth microdilution | H99 | 72 h, 30 °C, ≥50% inhibition | 0.25 µg/mL |
| O=C(NCc1nc(-c2ccc(Br)cc2)c[nH]1)Nc1ncc(Sc2ccccn2)s1 | Clostridioides difficile | broth microdilution | R20291 | added: verapamil 50 µg/mL | 4 µM |
| Oc1c(Br)ccc2cccnc12 | Citrobacter freundii | microbial growth, agar dilution | – | – | 35.7 µM |
| Oc1c(Br)c(Cl)c(Br)c2nc3c(C(F)(F)F)cc(C(F)(F)F)cc3nc12 | Gram-positive bacteria | – | – | range over strain panel | 0.2 to 4.69 µM |
| C[C@@H](c1ccn(Cc2cccc(F)c2F)n1)[C@](O)(Cn1cnnn1)c1ccc(F)cc1F | Cryptococcus neoformans | growth, broth microdilution | H99 | 72 h, 30 °C, ≥50% inhibition | 0.25 µg/mL |
| Oc1c(Cl)cc(Cl)c2cccnc12 | Citrobacter freundii | microbial growth, agar dilution | – | – | 37.4 µM |
| COc1c(NC(=O)c2ccc(NC(=O)c3ccc(NC(=O)[C@H](CC#N)NC(=O)c4ccc(NC(=O)/C(C)=C/c5ccc(O)cc5)cc4)cc3)c(OC)c2O)ccc(C(=O)O)c1O | Proteus mirabilis | microbial growth | DSM4479 | – | > 64 µg/mL |
| C[C@@H](c1ccn(Cc2ccc(Cl)cc2)n1)[C@](O)(Cn1cnnn1)c1ccc(F)cc1F | Cryptococcus neoformans | growth, broth microdilution | H99 | 72 h, 30 °C, ≥50% inhibition | < 0.008 µg/mL |
| C/C(=N/NC(=N)N)c1nnn(-c2ccc(C#CC(C)(C)C)cc2)c1C | Clostridioides difficile | microbial growth, broth dilution | BAA1870 | – | 4 µg/mL |
| CC(=O)N[C@H](CCCCN)C(=O)N[C@H](CC(C)C)C(=O)N[C@H](CCCCN)C(=O)N[C@H](CO)C(=O)N[C@H](CC(C)C)C(=O)N[C@H](CC(C)C)C(=O)N[C@H](CCCCN)C(=O)N[C@@H](C(=O)N[C@H](CC(C)C)C(=O)N[C@H](CO)C(=O)N[C@H](CCCCN)C(=O)N[C@H](C)C(=O)N[C@H](CCCCN)C(=O)N[C@H](CCCCN)C(=O)N[C@H](CCCCN)C(=O)N[C@H](CCCCN)C(=O)N[C@H](CC(C)C)C(=O)N[C@H](CCCCN)C(=O)N[C@@H](C(=O)N[C@H](CC(C)C)C(=O)N[C@H](CC(C)C)C(=O)N[C@H](CCCCN)C(=O)N[C@H](C)C(=O)N[C@H](CC(C)C)C(=O)N[C@H](CO)C(=O)N[C@H](CCCCN)C(N)=O)[C@H](C)O)[C@H](C)O | Acinetobacter baumannii | – | 1012, Mueller-Hinton broth | 24 h, 37 °C | 0.3 µM |
| C[C@@H](c1ccn(Cc2c(F)cccc2F)n1)[C@](O)(Cn1cnnn1)c1ccc(F)cc1F | Cryptococcus neoformans | growth, broth microdilution | H99 | 72 h, 30 °C, ≥50% inhibition | 0.0625 µg/mL |
| N#Cc1ccc(-c2c[nH]c(CNC(=O)Nc3ncc(Sc4ccccn4)s3)n2)cc1 | Clostridioides difficile | broth microdilution | R20291 | added: verapamil 50 µg/mL | 2 µM |
| CC[C@@H](C)[C@@H](NC(=O)[C@@H](C)NC(=O)[C@@H](CCCCN)NC(=O)[C@@H](CC(C)C)NC(=O)[C@@H](C)NC(=O)[C@H](NC(=O)[C@@H](Cc1c[nH]cn1)NC(=O)[C@@H](CC(C)C)NC(=O)[C@H](NC(=O)[C@H](NC(=O)[C@@H](CCCCN)NC(=O)[C@H](NC(=O)[C@@H](C)NC(=O)[C@@H](CO)NC(=O)[C@@H](CCCCN)NC(=O)[C@@H](Cc1ccccc1)NC(=O)[C@H](NC(=O)[C@@H](CCCCN)NC(=O)[C@@H](CC(C)C)NC(=O)[C@@H](Cc1ccccc1)NC(=O)[C@@H](CO)NC(=O)[C@@H](CCCCN)NC(=O)[C@@H](Cc1c[nH]c2ccccc12)NC(=O)[C@@H](CCCCN)NC(C)=O)[C@H](C)O)C(C)C)[C@H](C)O)C(C)C)[C@H](C)O)C(=O)N[C@H](CO)C(=O)N[C@H](CO)C(N)=O | Acinetobacter baumannii | – | 899, Mueller-Hinton broth | 24 h, 37 °C | 0.7 µM |

Excerpt of the above:
| Structure (SMILES) | organism | test | test system | setting | MIC |
| --- | --- | --- | --- | --- | --- |
| CC(=NNC(=N)N)c1nnn(-c2ccc(C#CC3(O)CCCCC3)cc2)c1C | Clostridioides difficile | microbial growth, broth dilution | BAA1870 | – | 8 µg/mL |
| C[C@@H](c1ccn(Cc2ccc(Cl)cc2)n1)[C@](O)(Cn1cnnn1)c1ccc(F)cc1F | Cryptococcus neoformans | growth, broth microdilution | H99 | 72 h, 30 °C, ≥50% inhibition | < 0.008 µg/mL |
